Measured values of several laboratories.
A part holds a random share of what one study measured. Changes are numbered by the printed parent chain.

Study 1
Target: CCNB3, cyclin fold, Cln2 fusion (human)
Method: yeast growth competition, sequencing
Matrix: yeast
Notes: weak parent motif
Relative to: not given
Direction: higher = stronger binding
Parent: WEE1 docking peptide (human); HKTFRKLRLFDTP
`K6P`: “normalised enrichment score” 0.635.
`H1K`: “normalised enrichment score” 0.119.
Under “normalised enrichment score”, `D11W` is recorded as 0.226.
`F10A`: “normalised enrichment score” 0.491.
`F4M` — result for “normalised enrichment score”: 0.228.
`K6G` — result for “normalised enrichment score”: 0.214.

Study 2
Target: Sal-like protein 4, full length isoform A (SALL4, Homo sapiens, UniProt Q9UJQ4, residues 1-1053)
Chain of UniProt Q9UJQ4 (whole entry, looked up): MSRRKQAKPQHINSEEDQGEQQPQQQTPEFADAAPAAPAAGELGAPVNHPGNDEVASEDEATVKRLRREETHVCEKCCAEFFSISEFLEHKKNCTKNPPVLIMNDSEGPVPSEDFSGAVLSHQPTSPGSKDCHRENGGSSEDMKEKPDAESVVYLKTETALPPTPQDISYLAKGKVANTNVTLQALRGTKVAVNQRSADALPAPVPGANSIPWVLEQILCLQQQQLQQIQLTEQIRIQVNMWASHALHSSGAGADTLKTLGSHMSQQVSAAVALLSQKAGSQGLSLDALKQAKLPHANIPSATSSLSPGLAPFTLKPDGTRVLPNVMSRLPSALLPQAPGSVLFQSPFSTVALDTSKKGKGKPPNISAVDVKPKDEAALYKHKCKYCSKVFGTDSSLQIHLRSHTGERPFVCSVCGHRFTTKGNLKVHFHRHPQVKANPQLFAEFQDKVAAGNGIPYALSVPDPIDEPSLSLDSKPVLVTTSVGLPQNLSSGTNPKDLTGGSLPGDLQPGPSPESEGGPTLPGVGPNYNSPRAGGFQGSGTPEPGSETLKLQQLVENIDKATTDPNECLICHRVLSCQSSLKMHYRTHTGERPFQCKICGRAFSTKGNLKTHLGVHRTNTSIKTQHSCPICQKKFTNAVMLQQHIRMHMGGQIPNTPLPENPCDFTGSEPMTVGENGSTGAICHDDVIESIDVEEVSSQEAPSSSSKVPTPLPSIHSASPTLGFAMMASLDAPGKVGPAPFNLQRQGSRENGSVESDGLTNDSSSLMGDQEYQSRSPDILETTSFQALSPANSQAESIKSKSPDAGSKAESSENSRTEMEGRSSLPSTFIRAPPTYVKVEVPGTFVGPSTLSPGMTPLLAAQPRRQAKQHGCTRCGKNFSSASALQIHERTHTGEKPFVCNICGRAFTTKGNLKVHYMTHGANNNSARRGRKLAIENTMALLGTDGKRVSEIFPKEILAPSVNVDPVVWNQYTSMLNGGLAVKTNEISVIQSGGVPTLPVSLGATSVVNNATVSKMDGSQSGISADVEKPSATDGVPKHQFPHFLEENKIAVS
Method: universal PBM
Form: double-stranded DNA, one strand shown
Matrix: in vitro
Concentration: 600 nM
Notes: 8-mer, flanks averaged, mean of replicates
Direction: higher = stronger binding
`GTATCACA` has an E-score of 0.156.
With `AAGGTACG` the E-score was 0.119.
The E-score of `ATATTCGG` is reported as 0.241.
The E-score of `GAAAGGTA` is reported as 0.127.
`ACAATGAA` gave an E-score of 0.273.
The E-score of `CCCGGCTC` is reported as -0.445.
`CTCCTGGC` has an E-score of -0.222.
`AACCTTGG` gave an E-score of -0.0517.

Study 3
Target: Max-binding protein MNT, bHLH-zipper, MAX partner unstated (MNT, Homo sapiens, UniProt Q99583, residues 220-300)
Method: protein-binding microarray
Form: double-stranded DNA, one strand shown
Matrix: in vitro
Concentration: not given
Notes: k-mer, scored over probes, only values ≥0.25
Direction: higher = stronger binding
Target sequence (chain): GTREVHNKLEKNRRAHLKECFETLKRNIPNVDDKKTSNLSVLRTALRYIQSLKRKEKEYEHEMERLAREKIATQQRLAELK
The E-score of `ATGCATGC` is reported as 0.38.
For `AACGCGTG`, the E-score was 0.444.
For `CGTGTTAG`, the E-score was 0.382.
With `ACATGGTG` the E-score was 0.333.
For `ACATGCGA`, the E-score was 0.393.
For `ACATGAGA`, the E-score was 0.324.
`GCACGAGA` has an E-score of 0.381.
For `CACACACG`, the E-score was 0.353.

Mixed results
With `PhoQ, residues 284 288 289 292 302 303 ASVMEA` the fold induction was 28.4 (PhoP, residues 12 14 15 18 19 LWHVM (Escherichia coli, UniProt P23836); Sort-seq, item: YFP reporter; E. coli; PhoQ-PhoP variant library, together with: 10 µM Mg2+; relative to: high Mg2+ state, higher = stronger signaling).

For quick reference, copied from above (study 3):
The E-score of `ATGCATGC` is reported as 0.38.
For `CGTGTTAG`, the E-score was 0.382.
With `ACATGGTG` the E-score was 0.333.
